Measurements collected from several papers.
Lines come from different studies, so protocols differ. Numbers after ± are the reported error.

| Compound | cell line | test | setting | IC50 [µM] |
| --- | --- | --- | --- | --- |
| CC1CN(C(=O)c2cn(C34CCCC(C)(CCC5C3CC5(C)C)C4)nn2)CCN1 (stereo not shown) | NCM460 | cell growth or viability, CCK-8 | 72 h | 17.6 |
| O=C(Nc1ccc(-c2noc(C3CC3)n2)c(Cl)c1)c1cccs1 | MRC5 lung fibroblasts | cytotoxicity, LDH release |  | > 30 |
| COc1ccc2c(c1OC)OCc1sc(NN=C(Cc3ccccc3[N+](=O)[O-])C(=O)O)nc1-2 (mixture of isomers) | CRL-2351 | cell growth, sulforhodamine B | 5 days | > 20 |
| COc1cc(/C=C/C(=O)/C=C(O)/C=C/c2ccc(OCC(=O)N3CCOCCOCCOCCOCCOCC3)c(OC)c2)ccc1OCC(=O)N1CCOCCOCCOCCOCCOCC1 | SK-LU-1 | cell growth or viability, SRB |  | 6.2 |
| N#Cc1c(F)c(Cl)c2nc(SCC3CCCO3)nc(N)c2c1F (stereo not shown) | SGC-7901 | cell growth or viability, MTT | 96 h | 5.45 |
| CCC(C)C1OC(=O)C(C)(C)C(=O)C(Cc2ccccc2)OC(=O)C(C(C)C)OC(=O)C(NC(=O)c2cccc(O)c2)C(C)OC1=O (stereo not shown) | SGC-7901 | cell viability, CCK-8 | 72 h | 17.1 ± 0.433 |
| C=C(C)[C@@H]1CC[C@]2(C(=O)O)CC[C@]3(C)[C@H](CC[C@@H]4[C@@]5(C)CC[C@H](O[C@@H]6O[C@@H](C)[C@H](O)[C@@H](OC)[C@H]6O)C(C)(C)[C@@H]5CC[C@]43C)[C@@H]12 | human Skin fibroblast | cell growth or viability | 48 h | 41 |
| [Cl][Cu][Cl].c1ccc(-c2nnc(-c3ccc4c(c3)OCO4)[nH]2)nc1 | T24 | cell growth or viability, MTT | 24 h | 3.45 |
| CCOC(=O)C/C(C)=N/NC(=O)c1nc2ccccc2n(C)c1=O | MCF7, HepG2 and HCT-116 | cell growth, MTT | range over three lines | > 10 |
| Cc1cnc(Nc2cc(C)c(C)c(C)c2)nc1Nc1ccc2oc(=O)[nH]c2c1 | human T cells and NK cells | STAT4 phosphorylation, flow cytometry | with: IL-12 | 0.399 |
| Cc1c(C(=O)NNC(=S)Nc2ccc(Cl)cc2)nnn1Cc1nc2ccccc2[nH]1 | HepG2, HCT-116, MCF7, HeLa | cell viability, MTT | 48 h, range over cell lines | 1 to 10 |
| C#CCOc1cc(C(=O)C2=C(C)C(=O)c3ccccc3C2=O)ccc1[N+](=O)[O-] | MRC-5 | cytotoxicity |  | 42.2 |
| COC(=O)[C@@H]1[C@@H](OC)[C@H](OC(=O)c2cc(OC)c(OC)c(OC)c2)C[C@@H]2CN3CC[C@]4(O[C@@H]3C(=O)[C@@H]21)C(=O)Nc1cc(OC)ccc14 | SUP-T1 | cell growth or viability, trypan blue | 72 h | 2.85 |
| CC(C)=CCC1=C([O-])C(=O)c2ccccc2C1=O.CC(C)=CCC1=C([O-])C(=O)c2ccccc2C1=O.Cc1cc2cccnc2c2ncccc12.[Cu+2] | HOS | cell viability, MTT | 24 h | 3.2 ± 0.2 |
| CCC1=C(CC)C2=[N+]3C1=Cc1c(CC)c(CC)c4[n]1[Ir-3]31([n+]3ccccc3)([n+]3ccccc3)[n]3c(c(CC)c(CC)c3=CC3=[N+]1C(=C4)C(CC)=C3CC)=C2.Cl | HCC827 | cell growth or viability, MTT | 72 h | 1.27 |
| COc1cc(-c2cc(=O)c3c(O)cc(OC4OC(COC5OC(C)C(O)C(O)C5O)C(O)C(O)C4O)cc3o2)ccc1O (stereo not shown) | HCT-116 p53+/+ | cell viability, resazurin reduction | 72 h | > 100 |
| O=C1CCC(N2C(=O)c3cccc(NCC(=O)N4CCN(c5ccc(Nc6nc(Oc7ccccc7)c7occc7n6)cc5)CC4)c3C2=O)C(=O)N1 (stereo not shown) | Mino |  | 72 h | 0.016 |
| O=C(O)/C(Cc1ccccc1[N+](=O)[O-])=N/Nc1nc2c(s1)CS(=O)(=O)c1cc(Cl)c(Cl)cc1-2 | CRL-2351 | cell growth, sulforhodamine B | 5 days | > 20 |
| CCNc1ccc(-c2nc3cc(OCCF)ccc3n3cccc23)cc1 | HEK293 DR-GFP reporter | homologous recombination, inhibitor | 48 h | 10.9 ± 5.6 |
| N#Cc1cccc(-c2ccc(=O)n(Cc3cccc(-c4ncc(OCC5CCN(CC(=O)NCCOCCNc6cccc7c6C(=O)N(C6CCC(=O)NC6=O)C7=O)CC5)cn4)c3)n2)c1 (stereo not shown) | Hs746T | cell growth, CCK-8 | 72 h | 0.0247 ± 0.0113 |
| COc1ccc(C[C@H]2COC(=O)[C@@H]2Cc2ccc(OCCCCCCCC(=O)NO)c(OC)c2)cc1OC | KU812 | cell growth or viability, CCK-8 | 48 h | 2.27 |
| O=C1c2ccc3c4ccc5c6c(ccc(c7ccc(c2c37)C(=O)N1CCN1CCCCC1)c64)C(=O)N(CCN1CCCCC1)C5=O | A549, PC-3, HL-60 | cytotoxicity, SRB | 72 h, range over three lines | 52.5 to 86.2 |
| CCCCCCCCSc1nc(N)c2c(F)c(C#N)c(F)c(Cl)c2n1 | SGC-7901 | cell growth or viability, MTT | 96 h | > 100 |
| O=c1[nH]c(=O)n([C@@H]2O[C@H](CO)[C@@H](O)[C@H](F)[C@H]2O)cc1F | FM3A | cell growth or viability |  | > 200 |
| C=C[CH2][Pd-]([Cl])[Cl].Cc1cc(C)c(-n2c[n+](-c3c(C)cc(C)cc3C)c3c2-c2cccc4cccc-3c24)c(C)c1 | CHO | cell growth or viability, MTT | 72 h | 3.7 |
| O=c1ccn([C@@H]2O[C@H](CO)[C@@H](O)[C@H](F)[C@H]2O)c(=O)[nH]1 | FM3A | cell growth or viability |  | > 200 |

| Compound | cell line | test | setting | IC50 [µM] |
| --- | --- | --- | --- | --- |
| C[N+]1(C)CC[NH2+][Pt-2]1([OH])([Cl])([Cl])[O]C(=O)CCC(=O)O | SW1573 | cell growth or viability | 96 h | 151 |
| CC(=O)Oc1ccccc1C(=O)[O][Pt]([NH2])([NH2])([Cl])([Cl])[O]C(=O)CCCc1ccccc1 | six human cancer lines | cytotoxicity, MTT |  | 0.46 |
| COC(=O)[C@H]1[C@H]2C[C@H]3O[C@@]4(CCN3C[C@H]2C[C@@H](OC(=O)c2cc(OC)c(OC)c(OC)c2)[C@@H]1OC)C(=O)Nc1cc(OC)c(Br)cc14 | SUP-T1 | cell growth or viability, trypan blue | 72 h | 19.2 |
| CC(C)C1OC(=O)C(NC(=O)c2cccc(O)c2)C(C)OC(=O)C(C(C)C)OC(=O)C(C)(C)C(=O)C(Cc2ccccc2)OC1=O (stereo not shown) | SGC-7901 | cell viability, CCK-8 | 72 h | > 20 |
| [Cl][Cu-][c]1n(-c2c(C(c3ccccc3)c3ccccc3)cc(C(c3ccccc3)c3ccccc3)cc2C(c2ccccc2)c2ccccc2)c2c([n+]1-c1c(C(c3ccccc3)c3ccccc3)cc(C(c3ccccc3)c3ccccc3)cc1C(c1ccccc1)c1ccccc1)-c1cccc3cccc-2c13 | CHO | cell growth or viability, MTT | 72 h | > 50 |
| CN1CCN(c2ccc(Nc3ncc(Cl)c(Nc4ccccc4P(C)(C)=O)n3)cc2Br)CC1 | BaF3 EGFR 19del/T790M | cell growth, inhibitor, CCK-8 | 72 h | 0.09 |
| Nc1ncnc2c1ncn2[C@@H]1O[C@H](CSSc2ccccn2)[C@@H](O)[C@H](F)[C@H]1O | FM3A | cell growth or viability |  | ≥ 500 |
| COc1cc(/C=N/NC(=O)c2cc3cc(Nc4nccc(-c5cccnc5)n4)ccc3[nH]2)cc(OC)c1 | LO2 | cell viability, MTT | 48 h | > 50 |
| C=C1C(=O)OC2C1CCC1(C)CC1CCC1(C)OC21 (stereo not shown) | B140P murine AML cells | cell growth |  | 13.5 ± 2.3 |
| CCCC(CCC)C(=O)[O][Pt]1([O]C(=O)C(CCC)CCC)[O]C(=O)C(=O)[O]1.NC1CCCCC1N | seven cancer cell lines | cytotoxicity | mean over panel | 10.9 |
| CC(C)Cc1ccc(C(C)C(=O)[O][Pt]([NH2])([NH2])([Cl])([Cl])[O]C(=O)CCCc2ccccc2)cc1 (stereo not shown) | six human cancer lines | cytotoxicity, MTT |  | 1.46 |
| C=C1CC[C@@H]2O[C@@]2(C)CC[C@H]2[C@H]1C[C@]2(C)C(=O)/C=C/C(C)(O)CO (stereo partly shown) | KPC | cell viability, CCK-8 | 72 h | 5.98 ± 0.78 |
| CC/C(=C(\c1ccc(O)cc1)c1ccc(OCCN(C)CCOCCOCCOCCOCCOC)cc1)c1ccccc1 | MDA-MB-231 (ER-negative) | cell growth | 96 h | 2.17 |
| COC(=O)[C@@]1(C)C=C(C(=O)Nc2cccc(C(=O)Nc3ccc(Nc4nccc(-c5cccnc5)n4)c(C)c3)c2)C(=O)CC1 | SH-SY5Y with activated MKK7 | western blot, refers to: phospho-c-Jun Ser73 | with: doxycycline 6 h | ~0.7 |
| CC1=CC2(C)C(=C(C)C3C4CC(C)CC(C)C4C4Oc5ccc(cc5)CC5(O)NC(=O)C(=C(O)C2C43)C5Nc2ncnc3c2ncn3C2OC(CO)C(O)C2O)C1C (stereo not shown) | Ramos | cell growth or viability, resazurin | 72 h | 3.3 |
| Cc1ccc2oc(-c3c4c(N)n[nH]c(=O)c4nn3-c3ccc(NC(=O)/C=C/CN(C)C)cc3)c(C)c2c1 | UMUC14 | cell growth or viability |  | 0.043 |
| CN1CCC(S(=O)(=O)NC23CCCC(C)(CCC4C2CC4(C)C)C3)CC1 (stereo not shown) | NCM460 | cell growth or viability, CCK-8 | 72 h | 23.7 |
| Cc1cc(C=O)cc(C)c1Oc1cc(Nc2ccc(C#N)cc2)nc2cnccc12 | H69AR (multidrug resistant) |  | 48 h | > 127 |
| CN1CCCNC(=O)c2cccc(c2)C(=O)NCCCN(C)CCCNc2cccc3c2C(=O)c2cccc(c2C3=O)NCCC1 | ASF-4-4L2 | cell proliferation, CCK-8 | 48 h | 6.3 |
| N#Cc1cccc(-c2ccc(=O)n(Cc3cccc(-c4ncc(OCC5CCN(CCCCCCCC(=O)Nc6cccc7c6C(=O)N(C6CCC(=O)NC6=O)C7=O)CC5)cn4)c3)n2)c1 (stereo not shown) | Hs746T | cell growth or viability, CCK-8 | 72 h | 0.159 |
| CCn1c2ccccc2c2cc(C(O)c3cccc4ncccc34)ccc21 (stereo not shown) | sample A patient-derived glioma cells | tumour microtube number per cell | 24 h | 0.036 |
| N#Cc1cccc(-c2ccc(=O)n(Cc3cccc(-c4ncc(OCC5CCN(CC(=O)NCCOCCOCCNc6ccc7c(c6)C(=O)N(C6CCC(=O)NC6=O)C7=O)CC5)cn4)c3)n2)c1 (stereo not shown) | Hs746T | cell growth or viability, CCK-8 | 72 h | 0.00619 |
| N#Cc1c(F)c(F)c2nc(SCC3CCCO3)nc(N)c2c1F (stereo not shown) | SGC-7901 | cell growth or viability, MTT | 96 h | 12.2 |
| N#Cc1c(-c2cccs2)cc(-c2cccc3ccccc23)nc1Nc1ccc(Nc2nc(-c3cccc4ccccc34)cc(-c3cccs3)c2C#N)cc1 | U-937 | cell growth or viability, MTT | 72 h | 0.559 |
| Cc1cc(C#N)cc(C)c1Oc1cc(Nc2ccc(C#N)cn2)nc2ccncc12 | H69AR (multidrug resistant) |  | 48 h | > 127 |
| CC/C(=C(\c1ccc(O)cc1)c1ccc(OCCN(C)CCOCCOCCOCCOCCOCCOCCOCCOCCOCCOCCOCCN(C)CCOc2ccc(/C(=C(/CC)c3ccccc3)c3ccc(O)cc3)cc2)cc1)c1ccccc1 | MDA-MB-231 (ER-negative) | cell growth | 96 h | 0.32 |

Repeated from above:
| Compound | cell line | test | setting | IC50 [µM] |
| --- | --- | --- | --- | --- |
| N#Cc1c(F)c(F)c2nc(SCC3CCCO3)nc(N)c2c1F (stereo not shown) | SGC-7901 | cell growth or viability, MTT | 96 h | 12.2 |
| CN1CCN(c2ccc(Nc3ncc(Cl)c(Nc4ccccc4P(C)(C)=O)n3)cc2Br)CC1 | BaF3 EGFR 19del/T790M | cell growth, inhibitor, CCK-8 | 72 h | 0.09 |
| CCCCCCCCSc1nc(N)c2c(F)c(C#N)c(F)c(Cl)c2n1 | SGC-7901 | cell growth or viability, MTT | 96 h | > 100 |
